Results pooled from the literature.
Lines come from different studies, so protocols differ. Numbers after ± are the reported error.
UniProt P0A8V2, sequence (whole entry, looked up): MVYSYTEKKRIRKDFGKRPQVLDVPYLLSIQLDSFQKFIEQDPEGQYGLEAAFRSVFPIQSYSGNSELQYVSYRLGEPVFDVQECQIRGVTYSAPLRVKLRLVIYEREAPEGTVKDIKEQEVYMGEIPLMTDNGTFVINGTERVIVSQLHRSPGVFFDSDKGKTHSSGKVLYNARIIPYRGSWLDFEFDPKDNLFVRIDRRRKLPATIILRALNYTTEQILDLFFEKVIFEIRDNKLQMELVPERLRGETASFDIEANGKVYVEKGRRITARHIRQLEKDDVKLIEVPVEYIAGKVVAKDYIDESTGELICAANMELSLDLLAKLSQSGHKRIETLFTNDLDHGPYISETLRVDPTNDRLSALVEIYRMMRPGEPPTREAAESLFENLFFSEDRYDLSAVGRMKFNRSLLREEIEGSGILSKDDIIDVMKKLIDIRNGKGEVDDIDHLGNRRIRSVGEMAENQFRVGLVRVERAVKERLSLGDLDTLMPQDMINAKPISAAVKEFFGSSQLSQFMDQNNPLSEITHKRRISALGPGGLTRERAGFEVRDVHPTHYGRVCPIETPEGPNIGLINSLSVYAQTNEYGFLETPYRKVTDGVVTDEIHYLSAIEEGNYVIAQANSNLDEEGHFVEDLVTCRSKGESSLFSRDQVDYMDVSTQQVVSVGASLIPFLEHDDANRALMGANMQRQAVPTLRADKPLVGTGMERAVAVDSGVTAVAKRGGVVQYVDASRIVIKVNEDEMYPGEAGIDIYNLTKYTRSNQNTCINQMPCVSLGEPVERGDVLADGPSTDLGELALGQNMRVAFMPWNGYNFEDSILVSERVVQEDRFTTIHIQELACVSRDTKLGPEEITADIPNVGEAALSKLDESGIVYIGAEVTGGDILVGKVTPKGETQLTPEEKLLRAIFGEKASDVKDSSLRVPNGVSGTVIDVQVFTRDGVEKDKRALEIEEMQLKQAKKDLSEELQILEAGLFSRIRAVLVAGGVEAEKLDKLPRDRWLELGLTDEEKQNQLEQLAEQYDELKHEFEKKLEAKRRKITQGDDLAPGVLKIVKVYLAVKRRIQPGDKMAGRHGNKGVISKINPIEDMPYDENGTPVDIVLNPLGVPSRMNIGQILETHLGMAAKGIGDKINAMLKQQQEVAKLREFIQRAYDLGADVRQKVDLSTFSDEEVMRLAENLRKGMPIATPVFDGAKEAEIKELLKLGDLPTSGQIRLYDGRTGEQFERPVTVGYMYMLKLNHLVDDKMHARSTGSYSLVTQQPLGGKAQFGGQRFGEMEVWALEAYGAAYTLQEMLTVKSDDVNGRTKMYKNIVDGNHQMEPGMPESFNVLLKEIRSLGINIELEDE
UniProt P0A8T7, sequence (whole entry, looked up): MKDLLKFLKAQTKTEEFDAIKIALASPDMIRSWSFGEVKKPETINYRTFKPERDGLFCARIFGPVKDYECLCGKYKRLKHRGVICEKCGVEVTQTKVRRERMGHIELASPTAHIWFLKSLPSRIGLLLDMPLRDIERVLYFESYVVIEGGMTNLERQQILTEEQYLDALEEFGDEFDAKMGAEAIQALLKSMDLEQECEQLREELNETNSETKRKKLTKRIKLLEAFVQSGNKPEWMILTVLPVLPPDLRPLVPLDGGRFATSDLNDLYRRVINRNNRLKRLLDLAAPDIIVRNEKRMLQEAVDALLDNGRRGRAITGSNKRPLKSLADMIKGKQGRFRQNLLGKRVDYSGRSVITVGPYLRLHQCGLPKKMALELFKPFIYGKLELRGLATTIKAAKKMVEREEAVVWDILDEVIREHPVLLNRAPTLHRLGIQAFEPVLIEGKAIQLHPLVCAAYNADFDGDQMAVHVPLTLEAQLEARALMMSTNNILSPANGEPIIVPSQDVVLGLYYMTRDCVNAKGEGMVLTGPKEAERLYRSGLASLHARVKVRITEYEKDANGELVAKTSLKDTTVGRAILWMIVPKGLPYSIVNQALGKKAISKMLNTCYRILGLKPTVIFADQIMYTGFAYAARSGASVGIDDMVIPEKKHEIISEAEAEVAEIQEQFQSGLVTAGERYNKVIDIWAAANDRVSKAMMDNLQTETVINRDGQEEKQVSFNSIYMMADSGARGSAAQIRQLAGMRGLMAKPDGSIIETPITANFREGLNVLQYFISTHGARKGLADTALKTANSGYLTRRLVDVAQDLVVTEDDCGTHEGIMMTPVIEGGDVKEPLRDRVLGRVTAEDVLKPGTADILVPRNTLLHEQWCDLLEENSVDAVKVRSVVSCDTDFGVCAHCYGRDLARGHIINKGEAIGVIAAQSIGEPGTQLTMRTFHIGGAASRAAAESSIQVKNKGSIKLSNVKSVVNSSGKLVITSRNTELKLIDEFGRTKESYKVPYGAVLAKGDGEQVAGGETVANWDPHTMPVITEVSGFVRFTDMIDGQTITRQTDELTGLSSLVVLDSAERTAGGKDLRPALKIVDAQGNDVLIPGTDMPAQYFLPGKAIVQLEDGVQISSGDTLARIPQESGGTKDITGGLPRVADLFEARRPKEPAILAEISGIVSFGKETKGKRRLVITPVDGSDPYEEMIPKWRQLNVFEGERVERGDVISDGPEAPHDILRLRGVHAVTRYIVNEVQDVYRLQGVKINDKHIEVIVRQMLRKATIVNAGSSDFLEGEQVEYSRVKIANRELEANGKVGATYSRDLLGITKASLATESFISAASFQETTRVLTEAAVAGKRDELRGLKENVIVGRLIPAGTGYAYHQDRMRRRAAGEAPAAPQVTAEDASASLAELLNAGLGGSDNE

CCc1c(C(=O)C(N)=O)c2c(OCC(=O)O)cccc2n1Cc1ccccc1 — survival (PB population, mouse; intravenous, 120 µg/mouse, 24 h, preincubated with venom, added: Daboia russelii venom 2.5 x LD50): 100%
LIRQGTDYKHWPQIA — responding donors (human CD4 T cells; AIM; peptide): 15%
CC[C@H](C)[C@H](NC(=O)[C@H](CC(C)C)NC(=O)[C@H](Cc1c[nH]c2ccccc12)NC(=O)[C@H](CCC(N)=O)NC(=O)[C@@H](NC(=O)[C@H](Cc1ccccc1)NC(=O)[C@H](C)NC(=O)[C@H](CCCCNC(=O)COCCOCCNC(=O)COCCOCCNC(=O)CC[C@H](NC(=O)CCCCCCCCCCCCCCCCCCC(=O)O)C(=O)O)NC(=O)[C@H](CCC(N)=O)NC(=O)[C@H](C)NC(=O)[C@@H](NC(=O)[C@H](CCCCN)NC(=O)[C@H](CC(=O)O)NC(=O)[C@H](CC(C)C)NC(=O)C(C)(C)NC(=O)[C@@H](NC(=O)[C@H](CO)NC(=O)[C@H](Cc1ccc(O)cc1)NC(=O)[C@H](CC(=O)O)NC(=O)[C@H](CO)NC(=O)[C@@H](NC(=O)[C@H](Cc1ccccc1)NC(=O)[C@@H](NC(=O)CNC(=O)[C@H](CCC(=O)O)NC(=O)C(C)(C)NC(=O)[C@@H](N)Cc1ccc(O)cc1)[C@@H](C)O)[C@@H](C)O)[C@@H](C)CC)[C@@H](C)CC)C(C)C)C(=O)N[C@@H](C)C(=O)NCC(=O)NCC(=O)N1CCC[C@H]1C(=O)N[C@@H](CO)C(=O)N[C@@H](CO)C(=O)NCC(=O)N[C@@H](C)C(=O)N1CCC[C@H]1C(=O)N1CCC[C@H]1C(=O)N1CCC[C@H]1C(=O)N[C@@H](CO)C(N)=O — treatment-emergent adverse events (healthy human; 8.0 mg, single ascending dose): 100%
COc1ccccc1-c1cccc(CN2CCCC(C(=O)NCCc3ccc(F)cc3)C2)c1 (stereo not shown) — maximum response (SARS-CoV-2; cytopathic effect; USA_WA1/2020; round 1, 5-point): 70.3%
Cn1cnc(Cn2c(=O)[nH]/c(=N\c3cc4cn(C)nc4cc3Cl)n(Cc3cc(F)c(F)cc3F)c2=O)n1 — treatment-related TEAE, Moderate severity (human, severe renal impairment; oral, 375 mg): 0%
Nc1ncnc2c([C@@H]3N[C@H](CO)[C@@H](O)[C@H]3O)c[nH]c12 — inhibition (Sudan ebolavirus; viral replication; HeLa, Boniface; 400 µM): 91.7%
Cc1cccc(N2CCN(C(=O)C3CCN(Cc4nc(-c5ccc(Cl)cc5)oc4C)CC3)CC2)c1C — efficacy (SARS-CoV-2; cytopathic effect; USA_WA1/2020; retest, 8-point, duplicates): 12.1%
GVYYPDKVFR — response magnitude per positive donor (AIM; peptide, CD8+ T cells from PBMC, human donors; dose not given): 114
CNC(=O)[C@@H](NC(=O)[C@H](CC(C)C)[C@H](O)C(=O)NO)C(C)(C)C — remaining fibrinogen γ chain (human fibrinogen; SDS-PAGE; Daboia russelii; concentration not given, unit not given, added: GA venom; baseline: untreated fibrinogen): 0.99
LVYFLQSINFVRIIM — responding donors (human CD4 T cells; AIM; peptide): 7%
CC(=O)O[C@@H]1[C@H](N)[C@@H](OP(=O)(O)O)[C@@]2(C(=O)O)CS[C@@](O)(C(N)=O)[C@@H]1O2 — Kd (DNA-directed RNA polymerase subunit beta' / DNA-directed RNA polymerase subunit beta (rpoC/rpoB, Escherichia coli, UniProt P0A8T7+P0A8V2); binding to elongation complex, 6-MI fluorescence titration; wild-type RNAP; riboside RNA 3′-end Guanine): 180 ± 50 nM
COc1ccc2c(Sc3ccc(Cl)cc3)c(C(=O)NCCCN3CCCCC3)[nH]c2c1 — efficacy (SARS-CoV-2; cytopathic effect; USA_WA1/2020; retest, 8-point, duplicates): 81.5%
CC[C@H](C)[C@H](NC(=O)[C@H](CC(C)C)NC(=O)[C@H](Cc1c[nH]c2ccccc12)NC(=O)[C@H](CCC(N)=O)NC(=O)[C@@H](NC(=O)[C@H](Cc1ccccc1)NC(=O)[C@H](C)NC(=O)[C@H](CCCCNC(=O)COCCOCCNC(=O)COCCOCCNC(=O)CC[C@H](NC(=O)CCCCCCCCCCCCCCCCCCC(=O)O)C(=O)O)NC(=O)[C@H](CCC(N)=O)NC(=O)[C@H](C)NC(=O)[C@@H](NC(=O)[C@H](CCCCN)NC(=O)[C@H](CC(=O)O)NC(=O)[C@H](CC(C)C)NC(=O)C(C)(C)NC(=O)[C@@H](NC(=O)[C@H](CO)NC(=O)[C@H](Cc1ccc(O)cc1)NC(=O)[C@H](CC(=O)O)NC(=O)[C@H](CO)NC(=O)[C@@H](NC(=O)[C@H](Cc1ccccc1)NC(=O)[C@@H](NC(=O)CNC(=O)[C@H](CCC(=O)O)NC(=O)C(C)(C)NC(=O)[C@@H](N)Cc1ccc(O)cc1)[C@@H](C)O)[C@@H](C)O)[C@@H](C)CC)[C@@H](C)CC)C(C)C)C(=O)N[C@@H](C)C(=O)NCC(=O)NCC(=O)N1CCC[C@H]1C(=O)N[C@@H](CO)C(=O)N[C@@H](CO)C(=O)NCC(=O)N[C@@H](C)C(=O)N1CCC[C@H]1C(=O)N1CCC[C@H]1C(=O)N1CCC[C@H]1C(=O)N[C@@H](CO)C(N)=O — Tmax (human, plasma; subcutaneous, 10.0 mg once weekly, week 15, multiple doses): 24 h
